Measured values pooled from the literature.
Numbered parts are unrelated; each lists some results of a single study.
UniProt O75914, sequence (whole entry, looked up): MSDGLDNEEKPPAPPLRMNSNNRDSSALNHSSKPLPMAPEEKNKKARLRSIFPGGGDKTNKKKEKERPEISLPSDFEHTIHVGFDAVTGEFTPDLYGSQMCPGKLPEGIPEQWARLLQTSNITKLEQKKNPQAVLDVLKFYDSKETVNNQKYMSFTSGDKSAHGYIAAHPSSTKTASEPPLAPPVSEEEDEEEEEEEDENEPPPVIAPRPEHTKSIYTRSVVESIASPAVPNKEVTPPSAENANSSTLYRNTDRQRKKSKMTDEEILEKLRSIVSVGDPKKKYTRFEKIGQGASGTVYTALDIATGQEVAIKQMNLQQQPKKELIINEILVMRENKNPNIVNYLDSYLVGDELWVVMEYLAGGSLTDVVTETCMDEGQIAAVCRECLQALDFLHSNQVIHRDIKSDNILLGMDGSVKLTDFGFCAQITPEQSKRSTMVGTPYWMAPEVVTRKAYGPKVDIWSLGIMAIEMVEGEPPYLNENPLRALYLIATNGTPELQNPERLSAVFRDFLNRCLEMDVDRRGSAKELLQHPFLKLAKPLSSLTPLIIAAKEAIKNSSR
UniProt Q13464, sequence (whole entry, looked up): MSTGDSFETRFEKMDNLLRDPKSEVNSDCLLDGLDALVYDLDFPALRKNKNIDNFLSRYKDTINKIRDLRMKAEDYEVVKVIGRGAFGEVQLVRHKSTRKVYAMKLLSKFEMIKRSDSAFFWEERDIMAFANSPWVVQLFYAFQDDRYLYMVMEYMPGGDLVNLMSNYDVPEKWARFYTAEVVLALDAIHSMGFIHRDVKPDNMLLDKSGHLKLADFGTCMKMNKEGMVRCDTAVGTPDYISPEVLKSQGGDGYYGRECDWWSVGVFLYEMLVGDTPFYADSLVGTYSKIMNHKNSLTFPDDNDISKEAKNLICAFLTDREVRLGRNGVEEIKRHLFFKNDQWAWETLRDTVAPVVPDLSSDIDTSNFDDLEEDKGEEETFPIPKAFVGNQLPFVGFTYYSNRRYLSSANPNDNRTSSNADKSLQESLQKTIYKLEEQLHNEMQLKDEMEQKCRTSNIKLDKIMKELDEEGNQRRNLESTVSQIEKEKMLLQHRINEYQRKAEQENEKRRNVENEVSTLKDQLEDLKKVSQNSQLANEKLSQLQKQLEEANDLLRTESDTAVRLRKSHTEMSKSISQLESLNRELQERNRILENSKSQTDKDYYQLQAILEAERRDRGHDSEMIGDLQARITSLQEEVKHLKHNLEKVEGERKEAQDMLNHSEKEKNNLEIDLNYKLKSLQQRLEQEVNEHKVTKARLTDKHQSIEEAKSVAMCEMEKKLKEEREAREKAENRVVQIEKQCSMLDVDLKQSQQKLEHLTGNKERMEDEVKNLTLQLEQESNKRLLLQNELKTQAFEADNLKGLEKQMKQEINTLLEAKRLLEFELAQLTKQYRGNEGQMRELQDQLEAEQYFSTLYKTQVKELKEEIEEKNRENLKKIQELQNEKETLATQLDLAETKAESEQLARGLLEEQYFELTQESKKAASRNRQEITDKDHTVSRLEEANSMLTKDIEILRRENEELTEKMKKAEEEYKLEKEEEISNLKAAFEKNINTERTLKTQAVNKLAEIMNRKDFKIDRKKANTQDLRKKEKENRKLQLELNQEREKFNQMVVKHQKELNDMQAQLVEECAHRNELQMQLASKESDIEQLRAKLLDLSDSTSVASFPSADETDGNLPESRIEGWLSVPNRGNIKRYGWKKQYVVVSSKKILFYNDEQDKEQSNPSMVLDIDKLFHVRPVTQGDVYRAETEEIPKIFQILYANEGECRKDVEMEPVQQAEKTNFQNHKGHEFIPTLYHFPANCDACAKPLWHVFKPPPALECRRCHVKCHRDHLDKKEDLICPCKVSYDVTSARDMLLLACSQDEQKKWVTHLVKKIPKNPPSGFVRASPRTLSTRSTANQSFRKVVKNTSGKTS
UniProt P50750, sequence (whole entry, looked up): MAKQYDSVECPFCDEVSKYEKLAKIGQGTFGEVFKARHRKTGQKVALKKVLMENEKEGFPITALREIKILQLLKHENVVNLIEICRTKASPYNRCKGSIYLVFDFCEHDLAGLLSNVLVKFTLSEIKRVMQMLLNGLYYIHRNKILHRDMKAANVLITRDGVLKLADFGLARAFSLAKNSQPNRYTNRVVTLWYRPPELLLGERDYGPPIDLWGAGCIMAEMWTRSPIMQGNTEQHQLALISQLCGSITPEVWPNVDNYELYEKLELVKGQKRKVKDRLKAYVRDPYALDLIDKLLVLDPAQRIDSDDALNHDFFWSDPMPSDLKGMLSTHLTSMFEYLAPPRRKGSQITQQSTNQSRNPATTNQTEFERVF
UniProt Q16832, sequence (whole entry, looked up): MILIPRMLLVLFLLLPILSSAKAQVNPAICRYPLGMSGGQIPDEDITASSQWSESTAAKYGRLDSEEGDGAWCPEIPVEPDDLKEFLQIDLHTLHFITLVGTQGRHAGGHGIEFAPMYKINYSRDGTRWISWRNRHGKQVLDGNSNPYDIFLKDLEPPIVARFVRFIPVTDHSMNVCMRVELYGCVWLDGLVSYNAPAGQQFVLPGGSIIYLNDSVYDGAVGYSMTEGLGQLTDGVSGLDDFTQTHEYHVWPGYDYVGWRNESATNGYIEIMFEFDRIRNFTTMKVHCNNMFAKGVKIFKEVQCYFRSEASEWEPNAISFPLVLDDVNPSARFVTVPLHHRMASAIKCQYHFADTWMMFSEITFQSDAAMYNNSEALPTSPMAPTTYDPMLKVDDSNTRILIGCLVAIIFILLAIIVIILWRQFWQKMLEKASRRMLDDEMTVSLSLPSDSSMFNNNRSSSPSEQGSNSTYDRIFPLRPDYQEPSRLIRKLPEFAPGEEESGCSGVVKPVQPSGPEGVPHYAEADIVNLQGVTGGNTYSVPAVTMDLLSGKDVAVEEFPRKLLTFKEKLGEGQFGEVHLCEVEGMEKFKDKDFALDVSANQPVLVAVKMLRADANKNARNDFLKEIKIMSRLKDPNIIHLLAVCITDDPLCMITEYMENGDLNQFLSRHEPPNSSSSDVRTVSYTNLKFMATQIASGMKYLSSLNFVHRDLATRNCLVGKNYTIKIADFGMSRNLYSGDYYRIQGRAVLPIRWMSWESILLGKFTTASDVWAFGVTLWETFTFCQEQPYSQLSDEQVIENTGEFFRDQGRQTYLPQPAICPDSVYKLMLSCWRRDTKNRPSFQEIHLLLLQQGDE
UniProt Q15759, sequence (whole entry, looked up): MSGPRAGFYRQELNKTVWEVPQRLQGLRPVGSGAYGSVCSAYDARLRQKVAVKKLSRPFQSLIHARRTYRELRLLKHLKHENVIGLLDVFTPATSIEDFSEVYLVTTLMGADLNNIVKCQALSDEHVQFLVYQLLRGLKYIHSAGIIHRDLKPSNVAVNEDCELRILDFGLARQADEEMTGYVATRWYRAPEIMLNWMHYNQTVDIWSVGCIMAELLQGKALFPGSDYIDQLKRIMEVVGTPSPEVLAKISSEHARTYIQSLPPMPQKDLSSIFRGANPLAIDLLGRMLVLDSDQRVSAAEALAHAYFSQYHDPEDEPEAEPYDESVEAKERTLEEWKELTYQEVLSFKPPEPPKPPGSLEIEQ
UniProt Q8N568, sequence (whole entry, looked up): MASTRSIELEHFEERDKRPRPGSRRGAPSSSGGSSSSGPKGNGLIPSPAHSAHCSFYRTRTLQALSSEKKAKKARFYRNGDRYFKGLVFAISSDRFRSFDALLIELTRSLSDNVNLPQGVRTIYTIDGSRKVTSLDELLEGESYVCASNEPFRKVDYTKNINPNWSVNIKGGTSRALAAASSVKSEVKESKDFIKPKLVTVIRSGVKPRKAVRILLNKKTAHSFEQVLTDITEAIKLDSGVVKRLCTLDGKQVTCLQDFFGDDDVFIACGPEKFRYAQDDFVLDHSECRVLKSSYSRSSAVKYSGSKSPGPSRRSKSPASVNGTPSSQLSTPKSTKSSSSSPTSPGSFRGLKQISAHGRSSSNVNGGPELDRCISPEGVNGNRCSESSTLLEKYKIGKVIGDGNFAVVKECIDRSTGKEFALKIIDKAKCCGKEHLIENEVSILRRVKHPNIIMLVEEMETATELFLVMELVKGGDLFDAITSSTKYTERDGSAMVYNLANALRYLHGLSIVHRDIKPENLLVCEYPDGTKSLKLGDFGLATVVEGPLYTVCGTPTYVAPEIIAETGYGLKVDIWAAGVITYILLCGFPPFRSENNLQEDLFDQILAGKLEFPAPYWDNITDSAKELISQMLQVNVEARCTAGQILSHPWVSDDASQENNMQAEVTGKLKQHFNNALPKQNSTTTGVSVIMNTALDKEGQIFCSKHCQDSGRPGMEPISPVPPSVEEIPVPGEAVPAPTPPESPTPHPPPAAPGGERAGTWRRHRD

Sample 1
Target: Alpha-1B adrenergic receptor (ADRA1B, Homo sapiens, UniProt P35368)
UniProt P35368, sequence (whole entry, looked up): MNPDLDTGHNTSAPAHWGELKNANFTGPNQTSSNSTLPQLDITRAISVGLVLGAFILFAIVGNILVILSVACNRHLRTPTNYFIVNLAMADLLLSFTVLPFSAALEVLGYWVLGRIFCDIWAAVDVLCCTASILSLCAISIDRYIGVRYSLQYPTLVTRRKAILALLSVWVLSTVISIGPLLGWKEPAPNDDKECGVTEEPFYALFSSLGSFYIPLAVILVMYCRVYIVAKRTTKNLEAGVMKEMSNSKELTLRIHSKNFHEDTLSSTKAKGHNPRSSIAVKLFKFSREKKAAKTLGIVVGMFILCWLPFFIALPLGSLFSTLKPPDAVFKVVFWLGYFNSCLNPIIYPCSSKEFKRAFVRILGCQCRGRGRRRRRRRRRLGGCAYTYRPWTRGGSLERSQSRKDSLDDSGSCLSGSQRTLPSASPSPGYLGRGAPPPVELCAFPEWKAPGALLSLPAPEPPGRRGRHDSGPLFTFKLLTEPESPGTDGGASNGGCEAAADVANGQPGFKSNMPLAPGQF
Observed: binding
Method: radioligand binding
Tested at: 10 µM
SMILES | inhibition
COc1cccc(CNC(=O)c2nc3scc(COCc4ccc(C(=O)O)cc4)c3c(=O)[nH]2)c1 | 7.58%
COCCc1ccc(-c2c(C)nc3c(N4CCOCC4)ccnn23)cn1 | -8.94%
O=C(Nc1cccnn1)N1CCC(=Cc2cccc(Oc3ccc(C(F)(F)F)cn3)c2)CC1 | 0.4%
CN1C(=O)[C@@H](N2CCc3cn(Cc4ccccc4)nc3C2=O)COc2ccccc21 | -13.4%
CN1CCN(C(=O)C(C)(C)c2ccc(C(=O)Nc3cn4cc(-c5ccncc5)ccc4n3)cc2)CC1 | 4.68%

Sample 2
Organism: Plasmodium berghei
Mode: inhibitor
Cell line: Huh-7
Strain: liver stage
Tested at: 10 µM
Time: 24 h
Reference: untreated control
SMILES | infection rate [%]
O=C(O)c1ccccc1Nc1cccc(C(F)(F)F)c1 | 94.3
CC1CC(OC(=O)C(O)c2ccccc2)CC(C)(C)N1C (centres unmarked) | 92.7
CC(C)[C@@H]1CC[C@@H](C)C[C@H]1O | 110

Sample 3
Cell line: mouse MPNST tumor cells
Method: high-content nuclear imaging
Item: cell number
Tested at: 10 µM
Time: 12 h
Setting: mean of 2 replicates
Reference: plate mean
Reading: higher = more cells
Structure (SMILES) | nuclei count [z-score]
CS(=O)(=O)N(Cc1ccco1)C[C@@H](O)Cn1c2ccccc2c2ccccc21 | 2.08
CCc1cccc2c3c([nH]c12)C(CC)(CC(=O)O)OCC3 (centres unmarked) | 0.081
S=C(NCCCc1cnc[nH]1)NCCCN(Cc1ccc(Cl)c(Cl)c1)c1ccc(Br)cn1 | -6.11
N#Cc1ccc(-c2csc(NN=C3CCCC3)n2)cc1 | 0.465

Sample 4
SMILES: Nc1cccc(-c2cc3c(Oc4cccc(O)c4)ncnc3[nH]2)c1
Observed: enzyme activity
Mode: inhibitor
Tested at: 0.5 µM
Reference: control
target | remaining activity [%]
CAMK4 (Homo sapiens, UniProt Q16566) | 94.9
MINK1 (Homo sapiens, UniProt Q8N4C8) | 34.7
PLK3 (Homo sapiens, UniProt Q9H4B4) | 95.7
MARK2 (Homo sapiens, UniProt Q7KZI7) | 79
PAK3 (Homo sapiens, UniProt O75914) | 79.8
DDR2 (Homo sapiens, UniProt Q16832) | 29.3
DCLK2 (Homo sapiens, UniProt Q8N568) | 89
CLK4 (Homo sapiens, UniProt Q9HAZ1) | 104
PRKG2 (Homo sapiens, UniProt Q13237) | 108
MAPK11 (Homo sapiens, UniProt Q15759) | 108
NEK3 (Homo sapiens, UniProt P51956) | 57.5
ROCK1 (Homo sapiens, UniProt Q13464) | 94.1
Cyclin-dependent kinase 9, with cyclin K (CDK9, Homo sapiens, UniProt P50750) | 58.4

Sample 5
Target: His6 tag
Method: AlphaScreen counter screen
Tested at: concentration not given
Structure (SMILES) | inhibition
Cn1c(C(C#N)=Cc2ccncc2)nc2ccccc21 | 1.05%
O=C(Nc1ccc(O)c(-c2nc3ccccc3s2)c1)c1ccco1 | 7.5%
COc1ccc2nc(NC(=O)C3C4CCC(C4)C3C(=O)O)sc2c1 (centres unmarked) | 0.55%
CCN1CCN(c2ccc(Nc3cc(N(C)C(=O)Nc4c(Cl)c(OC)cc(OC)c4Cl)ncn3)cc2)CC1 | 11%

A few entries again (sample 4):
target | remaining activity [%]
CLK4 (Homo sapiens, UniProt Q9HAZ1) | 104
PRKG2 (Homo sapiens, UniProt Q13237) | 108
MAPK11 (Homo sapiens, UniProt Q15759) | 108
NEK3 (Homo sapiens, UniProt P51956) | 57.5
